Measurements gathered from unrelated publications.
Numbered parts are unrelated; each lists some results of a single study.
UniProt Q5S007, sequence (whole entry, looked up): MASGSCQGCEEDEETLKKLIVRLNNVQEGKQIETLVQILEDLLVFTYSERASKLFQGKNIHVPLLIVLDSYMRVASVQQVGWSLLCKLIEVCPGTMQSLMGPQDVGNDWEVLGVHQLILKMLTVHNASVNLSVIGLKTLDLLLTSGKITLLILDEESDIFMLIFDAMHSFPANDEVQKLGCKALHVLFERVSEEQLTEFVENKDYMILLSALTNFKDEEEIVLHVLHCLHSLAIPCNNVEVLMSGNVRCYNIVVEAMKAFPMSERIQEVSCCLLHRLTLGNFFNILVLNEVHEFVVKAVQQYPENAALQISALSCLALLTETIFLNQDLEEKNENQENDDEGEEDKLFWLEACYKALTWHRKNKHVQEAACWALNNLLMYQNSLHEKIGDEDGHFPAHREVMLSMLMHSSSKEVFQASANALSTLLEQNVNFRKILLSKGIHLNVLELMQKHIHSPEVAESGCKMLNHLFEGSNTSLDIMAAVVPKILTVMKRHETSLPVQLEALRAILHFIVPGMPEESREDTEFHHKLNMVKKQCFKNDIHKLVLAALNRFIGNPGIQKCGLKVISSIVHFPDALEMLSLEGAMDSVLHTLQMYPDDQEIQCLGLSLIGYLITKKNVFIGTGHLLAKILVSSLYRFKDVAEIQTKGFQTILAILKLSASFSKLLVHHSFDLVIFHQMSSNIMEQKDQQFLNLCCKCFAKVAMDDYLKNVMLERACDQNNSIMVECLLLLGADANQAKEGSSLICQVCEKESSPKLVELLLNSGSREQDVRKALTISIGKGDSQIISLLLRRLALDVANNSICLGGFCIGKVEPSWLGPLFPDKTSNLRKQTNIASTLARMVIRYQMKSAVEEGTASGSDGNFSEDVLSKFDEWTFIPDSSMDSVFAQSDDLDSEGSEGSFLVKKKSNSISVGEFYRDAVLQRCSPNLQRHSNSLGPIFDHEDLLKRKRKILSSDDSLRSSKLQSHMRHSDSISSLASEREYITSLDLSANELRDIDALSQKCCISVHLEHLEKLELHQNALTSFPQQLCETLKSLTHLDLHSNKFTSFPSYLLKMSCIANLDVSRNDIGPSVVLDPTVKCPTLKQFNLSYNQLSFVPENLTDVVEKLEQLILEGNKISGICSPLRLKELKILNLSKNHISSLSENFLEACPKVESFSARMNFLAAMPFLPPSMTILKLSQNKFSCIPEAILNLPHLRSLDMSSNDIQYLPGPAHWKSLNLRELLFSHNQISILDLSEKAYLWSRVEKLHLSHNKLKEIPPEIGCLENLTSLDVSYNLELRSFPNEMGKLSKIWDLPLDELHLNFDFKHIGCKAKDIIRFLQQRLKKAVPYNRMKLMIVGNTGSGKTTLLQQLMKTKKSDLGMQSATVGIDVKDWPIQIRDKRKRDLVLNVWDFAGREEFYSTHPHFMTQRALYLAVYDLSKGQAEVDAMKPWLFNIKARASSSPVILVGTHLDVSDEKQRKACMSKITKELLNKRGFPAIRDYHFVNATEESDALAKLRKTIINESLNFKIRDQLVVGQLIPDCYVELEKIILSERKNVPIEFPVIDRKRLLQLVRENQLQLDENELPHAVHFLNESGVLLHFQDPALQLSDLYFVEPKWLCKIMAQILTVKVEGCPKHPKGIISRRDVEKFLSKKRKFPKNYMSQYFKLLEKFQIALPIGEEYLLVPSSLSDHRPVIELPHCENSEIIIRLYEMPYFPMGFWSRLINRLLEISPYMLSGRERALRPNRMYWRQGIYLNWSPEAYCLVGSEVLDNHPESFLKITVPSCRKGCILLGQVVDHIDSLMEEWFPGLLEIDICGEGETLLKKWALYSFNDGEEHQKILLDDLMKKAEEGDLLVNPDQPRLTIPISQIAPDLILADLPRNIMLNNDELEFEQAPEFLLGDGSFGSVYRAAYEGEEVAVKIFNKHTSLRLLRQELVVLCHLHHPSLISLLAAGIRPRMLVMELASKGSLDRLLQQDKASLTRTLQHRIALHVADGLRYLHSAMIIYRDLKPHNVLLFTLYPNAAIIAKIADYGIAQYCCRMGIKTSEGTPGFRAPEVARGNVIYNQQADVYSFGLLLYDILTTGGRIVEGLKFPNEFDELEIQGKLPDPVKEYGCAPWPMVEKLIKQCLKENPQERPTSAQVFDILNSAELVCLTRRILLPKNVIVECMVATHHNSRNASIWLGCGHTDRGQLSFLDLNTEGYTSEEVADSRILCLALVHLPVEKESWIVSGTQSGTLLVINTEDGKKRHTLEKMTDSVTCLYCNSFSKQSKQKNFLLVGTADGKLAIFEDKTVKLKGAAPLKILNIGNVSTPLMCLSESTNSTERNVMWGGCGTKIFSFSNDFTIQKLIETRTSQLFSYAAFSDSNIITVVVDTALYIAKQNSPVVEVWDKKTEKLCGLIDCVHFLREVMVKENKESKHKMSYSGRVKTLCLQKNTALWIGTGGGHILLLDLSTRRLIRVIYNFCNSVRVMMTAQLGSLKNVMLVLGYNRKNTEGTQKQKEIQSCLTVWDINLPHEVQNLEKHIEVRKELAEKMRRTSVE
UniProt Q08345, sequence (whole entry, looked up): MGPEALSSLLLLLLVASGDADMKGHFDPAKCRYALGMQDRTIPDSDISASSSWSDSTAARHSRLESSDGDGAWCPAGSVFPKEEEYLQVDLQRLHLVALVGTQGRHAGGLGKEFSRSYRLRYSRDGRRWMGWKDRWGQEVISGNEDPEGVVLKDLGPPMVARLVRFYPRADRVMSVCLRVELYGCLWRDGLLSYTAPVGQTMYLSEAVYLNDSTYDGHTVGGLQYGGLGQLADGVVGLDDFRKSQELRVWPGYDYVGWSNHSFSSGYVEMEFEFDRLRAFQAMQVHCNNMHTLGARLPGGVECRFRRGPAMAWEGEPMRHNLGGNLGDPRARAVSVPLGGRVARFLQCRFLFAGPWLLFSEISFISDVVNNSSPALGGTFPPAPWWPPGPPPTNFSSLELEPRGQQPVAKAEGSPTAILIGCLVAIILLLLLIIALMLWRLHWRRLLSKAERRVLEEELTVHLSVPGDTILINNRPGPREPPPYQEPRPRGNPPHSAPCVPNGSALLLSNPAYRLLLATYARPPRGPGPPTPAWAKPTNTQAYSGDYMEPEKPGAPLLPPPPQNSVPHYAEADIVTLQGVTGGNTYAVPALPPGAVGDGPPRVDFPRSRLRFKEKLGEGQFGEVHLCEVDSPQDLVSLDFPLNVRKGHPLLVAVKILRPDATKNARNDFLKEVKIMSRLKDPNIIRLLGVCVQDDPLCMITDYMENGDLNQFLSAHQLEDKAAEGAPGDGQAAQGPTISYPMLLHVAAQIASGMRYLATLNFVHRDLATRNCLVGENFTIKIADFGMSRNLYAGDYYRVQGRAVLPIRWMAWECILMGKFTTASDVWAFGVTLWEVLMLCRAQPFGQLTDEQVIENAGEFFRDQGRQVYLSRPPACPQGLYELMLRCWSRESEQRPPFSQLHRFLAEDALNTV

Set 1
Compound: CNCc1ccccc1-c1csc([C@H](C)Nc2nc(C)nc3cc(OC)c(OC)cc23)c1
Observed: cell-free assay
Method: competition with immobilised ligand
Tested at: 1 µM
target | remaining binding [%]
Receptor-type tyrosine-protein kinase FLT3 (FLT3, Homo sapiens, UniProt P36888, F691L/ITD) | 79
Tyrosine-protein kinase JAK2, JH1 (JAK2, Homo sapiens, UniProt O60674) | 63
Mitogen-activated protein kinase kinase kinase kinase 4 (MAP4K4, Homo sapiens, UniProt O95819) | 97
Calcium/calmodulin-dependent protein kinase type 1 (CAMK1, Homo sapiens, UniProt Q14012) | 100
Tyrosine-protein kinase Fyn (FYN, Homo sapiens, UniProt P06241) | 100
Leucine-rich repeat serine/threonine-protein kinase 2 (LRRK2, Homo sapiens, UniProt Q5S007) | 100
Epithelial discoidin domain-containing receptor 1 (DDR1, Homo sapiens, UniProt Q08345) | 100
Ephrin type-B receptor 6 (EPHB6, Homo sapiens, UniProt O15197) | 87
Cyclin-dependent kinase 4, with cyclin D1 (CDK4, Homo sapiens, UniProt P11802) | 77
Ephrin type-B receptor 4 (EPHB4, Homo sapiens, UniProt P54760) | 100
Phosphatidylinositol 4,5-bisphosphate 3-kinase catalytic subunit alpha isoform (PIK3CA, Homo sapiens, UniProt P42336, C420R) | 97
High affinity nerve growth factor receptor (NTRK1, Homo sapiens, UniProt P04629) | 87
Cyclin-G-associated kinase (GAK, Homo sapiens, UniProt O14976) | 90
Leukocyte tyrosine kinase receptor (LTK, Homo sapiens, UniProt P29376) | 98
Receptor-type tyrosine-protein kinase FLT3, autoinhibited (FLT3, Homo sapiens, UniProt P36888) | 93

Set 2
Target: Activin receptor type-1-like (ACVRL1, Homo sapiens, UniProt P37023)
UniProt P37023, sequence (whole entry, looked up): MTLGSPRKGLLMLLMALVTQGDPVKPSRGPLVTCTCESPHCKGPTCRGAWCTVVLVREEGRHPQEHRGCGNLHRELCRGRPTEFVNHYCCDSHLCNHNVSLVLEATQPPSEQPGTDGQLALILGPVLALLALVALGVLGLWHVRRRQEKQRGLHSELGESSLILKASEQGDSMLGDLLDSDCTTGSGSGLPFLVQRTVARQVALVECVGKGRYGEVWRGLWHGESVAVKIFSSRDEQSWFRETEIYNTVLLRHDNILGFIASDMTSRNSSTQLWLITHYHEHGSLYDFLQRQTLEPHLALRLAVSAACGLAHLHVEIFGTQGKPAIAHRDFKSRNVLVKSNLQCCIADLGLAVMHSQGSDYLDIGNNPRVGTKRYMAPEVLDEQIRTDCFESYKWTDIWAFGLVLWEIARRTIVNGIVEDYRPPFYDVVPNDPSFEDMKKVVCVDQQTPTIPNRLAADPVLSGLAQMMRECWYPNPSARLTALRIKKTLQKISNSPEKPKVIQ
Observed: enzyme activity
Mode: inhibitor
Tested at: 0.5 µM
Baseline: control
Structure (SMILES) | remaining activity
COc1ccc2c(c1)c(C1=C(c3c[nH]c4ccccc34)C(=O)NC1=O)cn2CCCN(C)C | 87.8%
Cc1cc(Nc2cc(N3CCN(C)CC3)nc(Sc3ccc(NC(=O)C4CC4)cc3)n2)[nH]n1 | 99.5%
O=C1NC(=O)c2c1c1c3ccccc3[nH]c1c1[nH]c3cc(Br)ccc3c21 | 109%
c1ccc(-c2n[nH]c3c2oc2ccccc23)cc1 | 111%
O=C1Cc2c([nH]c3ccc(Br)cc23)-c2ccccc2N1 | 99%
O=c1cc(N2CCOCC2)oc2c(-c3ccccc3)cccc12 | 91.9%
N#Cc1cnc2cnc(NCc3cccnc3)cc2c1Nc1ccc(F)c(Cl)c1 | 96.9%
COc1ccc(COc2ccc(Cc3cnc(N)nc3N)cc2OC)cc1 | 101%
CN(C)S(=O)(=O)c1ccc2c(c1)/C(=C/c1cc3c([nH]1)CCCC3)C(=O)N2 | 102%
CCCCc1c(-c2ccc(OC)cc2)[nH]c2nccnc12 | 77%
c1ccc2c(-c3ccncc3)c[nH]c2c1 | 100%

Set 3
Species: human
Medium: microsomes or S9
Tested at: 2 µM
Time: 0.5 h
Compound | remaining compound
c1nc2nc[nH]c(N3CCN(Cc4ccc5c(c4)OCO5)CC3)c-2n1 | 20.6%
Cn1c(=O)oc2cc(S(=O)(=O)N3CCC4(CC3)Nc3ccccc3-n3cccc34)ccc21 | > 99.9%
COc1ccc2c(c1OC)C(=O)OC2c1c(O)cc(C)n(Cc2ccccn2)c1=O (stereo not drawn) | > 100%
COc1ccccc1OCC(=O)N(Cc1ccc(-c2ccc(F)cc2)o1)C1CCS(=O)(=O)C1 (stereo not drawn) | 2.62%
CCOC(=O)Cc1c(C)[nH]c2c(-c3ccccc3)cnn2c1=O | 30%
CC(Oc1cc(-n2nc3c(c2Cl)CCCC3)c(F)cc1Cl)C(C)(C)O (stereo not drawn) | 47.4%
CCOC(OCC)c1cc2c(N)nc3ccccc3c2o1 | 61.9%
CCOC(=O)c1c(C)c(C(=O)CN(C)S(=O)(=O)c2ccccc2)c(C)n1CC | 11.7%
Cc1[nH]c(=O)c2ccccc2c1C(=O)OC(C)(C)C | 23.5%
CCCn1c2c(c(O)c(C(=O)OCC)c1=O)CCCC2 | 64.9%
CCc1nc2n(n1)C1(CCCCC1)[C@@H]1CCCC[C@@H]1N2C(=O)CC(C)C | 0.254%
COc1cc(=O)n2c(c1C(=O)Nc1cccc(F)c1C)CCCC2 | 58%

Other studies, line by line
SMILES | target | method | notes | quantity | result
CCc1c(C)c2cc3nc(cc4nc(cc5c(CC)c(C)c(cc1[nH]2)n5C)C(C)=C4CCC(=O)O)C(CCC(=O)O)=C3C | G-quadruplex RNA, G-quadruplex (Homo sapiens) | fluorescence turn-on | KCl 150 mM | binding | binds

Repeated from above (set 3):
Compound | remaining compound
CCCn1c2c(c(O)c(C(=O)OCC)c1=O)CCCC2 | 64.9%
CCOC(OCC)c1cc2c(N)nc3ccccc3c2o1 | 61.9%
Cc1[nH]c(=O)c2ccccc2c1C(=O)OC(C)(C)C | 23.5%
